Published values from different studies.
Numbered parts are unrelated; each lists some results of a single study.

Set 1
Target: RNA binding protein fox-1 homolog 2, RRM domain, GST-SBP tag (RBFOX2, Homo sapiens, UniProt O43251-10, residues 100-194)
Technique: RNA Bind-n-Seq
Molecule type: RNA
Sample: in vitro
Tested at: 365 nM
Setting: natural RNA segment, single round, ends assumed
Reference: no-protein control
Reading: higher = stronger binding
Constant ends, left off below: GGGAGUUCUACAGUCCGACGAUC … UGGAAUUCUCGGGUGCCAA
Target sequence (chain): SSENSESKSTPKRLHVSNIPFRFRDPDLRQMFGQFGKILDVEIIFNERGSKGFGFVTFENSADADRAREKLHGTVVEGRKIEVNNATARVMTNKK
| Oligonucleotide | RBNS enrichment (R) |
| --- | --- |
| GCUCAUGAGGACACACUCUGGAAGUCGAGGGGCUGCCACGUGCAGAGGAAGUUCCCGGCCUGGGGGCUUUAUCCAGGGGUCCCAGUCGAGAGUGGCCCGAGGCCGUCCCU | 0.359 |
| GUCUAUUUGGACUCUAAGCUCUACGGGUGACAGAUCUUGUUUCUGAAGAUGGUUUAAGUUAUAGCUUCUUAAACGAAAGAAUAAAAUACUGCAAAAUGUUUUUAUAUUUG | 1.22 |
| AAAGACAGACAGGCAAAGACGGCACACGUUGGGUCUGCUUCCAGUCCAUAGGCCACCAAUUCUCCUUGCGCUGCUCAGGCCUUCUCUCACCAGAUGGGCUUCCAUUCACC | 0.192 |
| GAAGCCUACUUUCCUGAGGCAGCAGCACUGCCACUGGAGCCUCCCGACAGGGCGUGCCUCUCCCACUGCAGCCCCUGUGGUGGUGGCUGCCUAAUUCAGUUCCAGCUCUC | 0.226 |
| ACUAAUCUUACUUCCACAAAAUAUGUGAAUUUGCUGCUUCUGAGAGGCAAUGUGAAAGAGGGAGUAUUACUUUUAUGUACAAAGUUAUUUAUUUAUAGAAAUUUUGGUAC | 0.756 |
| CCCCCUUUGAUACAAAUCGGUUGGAUUUUCAUAUGCUUCAAAGGCUUGAUCUGUGAGUCACUCUCCAGUUUGGGACAUGGGUCUGUCUGUGGCUUUGAGAAAAGGUACUU | 0.546 |
| AGUUCCAUCUCGUUAGGAAUUGGUUGAUGAGGUAUGGUACAUCUGCAUUUCUUUAACCAUAGCUGUAAUGUACCAUAUUAAAUUGUAGCCUUUUGCAUGCGGGUAUUAUA | 4.19 |
| UCCCAGAACUCUGAGCAAAGGGACUGUGAUGCCAAACCAGACUUUGGUCCCUUCCUGAGCCCUGCUCCAGUUGUCCCUAAGUGCCUUCCCUUUUGUCUGGACUGACCUGA | 0.534 |

Set 2
Target: Prothrombin, mature alpha-thrombin (F2, Homo sapiens, UniProt P00734)
Technique: aptamer microarray, sandwich
Molecule type: DNA with 2'F-ANA
Sample: in vitro
Tested at: 200 nM
Setting: whole 15-mer aptamer, many near background
Added: Cy3 exosite-II aptamer, 400 nM
Reading: higher = stronger binding
Oligonucleotide: GGTTGGTGTGGTTGG
| Modification | mean fluorescence intensity [a.u.] |
| --- | --- |
| 2'F-ANA at 1 2 3 8 11 15 | 228 |
| 2'F-ANA at 1 2 3 6 7 8 9 11 14 | 81.1 |
| 2'F-ANA at 2 5 9 12 | 241 |
| 2'F-ANA at 1 2 4 5 10 13 15 | 46.6 |
| 2'F-ANA at 1 2 5 11 12 13 14 | 66.7 |
| 2'F-ANA at 1 2 4 5 6 7 10 12 14 | 78.2 |
| 2'F-ANA at 1 2 3 4 5 8 9 11 13 14 | 46.1 |
| 2'F-ANA at 1 7 10 11 12 13 14 | 46.6 |
| 2'F-ANA at 1 6 8 9 11 12 15 | 288 |
| 2'F-ANA at 3 4 5 6 7 8 9 12 13 14 15 | 53.7 |
| 2'F-ANA at 1 3 4 6 7 8 12 13 | 342 |
| 2'F-ANA at 1 2 3 4 8 11 12 13 14 15 | 75 |
| 2'F-ANA at 1 4 5 9 13 | 50.1 |
| 2'F-ANA at 1 6 8 9 11 12 13 15 | 231 |
| 2'F-ANA at 1 3 5 6 7 11 12 14 15 | 45.1 |
| 2'F-ANA at 2 3 4 5 6 7 9 10 11 12 13 14 | 53.5 |
| 2'F-ANA at 2 6 7 8 10 12 13 14 | 85 |
| 2'F-ANA at 2 4 6 7 8 9 10 13 | 85.2 |
| 2'F-ANA at 1 2 3 4 5 6 7 9 10 11 13 14 15 | 62.1 |
| 2'F-ANA at 3 9 10 11 12 13 14 15 | 386 |
| 2'F-ANA at 1 2 3 4 5 8 10 11 12 13 15 | 52.1 |
| 2'F-ANA at 1 2 3 6 7 11 13 | 146 |

Set 3
Target: Max-binding protein MNT, bHLH-zipper, MAX partner unstated (MNT, Homo sapiens, UniProt Q99583, residues 220-300)
Technique: protein-binding microarray
Molecule type: double-stranded DNA, one strand shown
Sample: in vitro
Tested at: not given
Setting: k-mer, scored over probes, only values ≥0.25
Reading: higher = stronger binding
Residues (chain): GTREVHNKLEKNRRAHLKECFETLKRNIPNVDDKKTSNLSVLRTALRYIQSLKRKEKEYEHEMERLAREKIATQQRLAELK
| Oligonucleotide | E-score |
| --- | --- |
| CGCACCAC | 0.314 |
| CCCCCACG | 0.365 |
| AGACACGC | 0.412 |
| GTCCACGA | 0.271 |
| ACATGGAT | 0.3 |
| ACATGTAC | 0.355 |
| GCCCCACA | 0.324 |
| CATCCCCA | 0.252 |
| GTGCACGA | 0.348 |
| CGTGCGCA | 0.376 |
| ATGCGGGC | 0.314 |
| CACGCTAA | 0.305 |
| CGTGCTCA | 0.418 |
| ACGTGAAA | 0.352 |
| GCGTGTAC | 0.414 |
| AGCGTGTA | 0.365 |
| ACGAGGAC | 0.385 |
| AAGACACG | 0.295 |
| ACGCGCCA | 0.324 |
| ATGCGCTA | 0.265 |

Set 4
Target: RING finger protein unkempt homolog, zinc fingers 1-6, GST-SBP tag (UNK, Homo sapiens, UniProt Q9C0B0, residues 30-357)
Chain of UniProt Q9C0B0 (30-357, looked up): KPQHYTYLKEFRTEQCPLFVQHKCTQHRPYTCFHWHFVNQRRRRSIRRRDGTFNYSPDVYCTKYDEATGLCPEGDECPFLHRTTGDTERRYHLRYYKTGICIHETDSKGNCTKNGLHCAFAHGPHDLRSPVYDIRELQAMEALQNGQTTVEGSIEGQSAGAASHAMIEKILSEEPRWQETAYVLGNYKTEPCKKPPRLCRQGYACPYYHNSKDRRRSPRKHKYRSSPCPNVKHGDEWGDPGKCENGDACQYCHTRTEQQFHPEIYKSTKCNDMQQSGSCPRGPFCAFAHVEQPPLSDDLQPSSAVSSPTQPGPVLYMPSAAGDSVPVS
Technique: RNA Bind-n-Seq
Molecule type: RNA
Sample: in vitro
Tested at: not given
Setting: RNA with constant flanks, ends assumed
Reference: input RNA pool
Reading: higher = stronger binding
Constant ends, left off below: GGGAGUUCUACAGUCCGACGAUC … CAACAGAGGAUUGAGCAUCA
| Oligonucleotide | bound/input enrichment [ratio] |
| --- | --- |
| UAAUAAUUAGCUAUUUUAUAAAGGUAACGAGAAAAAAUACACUAUGUCUGAUGAAGUUUUCCGCACCACUUUGGCAUAUACAAAGAGUCCAAAAGUUACCAAAAGAACUACUUUCCAGGA | 4.24 |
| UAUGCAGGUGCGUUGAGAGCUUCAGGAGAAAUGGCUUCAGCACAGUAUAUUACUGCAGCUCUCCGAGAUUUGUUUGAUUCCAUGGAUAAAACUUCUUCUAGUAUCCCACCUAUUAUUCUG | 1.15 |
| GCCCGCCUUUUUCUCUCACACUUUGGAUUUUUGUCCUUAGAAGCACUGAAGGAACCUGCAAACCGUCGUCUACCUCCUCACCUUAUUGCACUUGAUUCCACGAUACCUGGAUUUUUUGAU | 0.389 |
| UCUGCUCCUGGAAAAGAGAAAAGUGAAACUGAUAAGGAAACUUCUUUGGUAAAGCAAACAUCCGCAAAACUUCAACAACAAGAACAAAGGGAGGAGGCUCAGUGGACACCUACUAAAUUG | 0.268 |
| CUUCUGCAGCUCAUCUCAUGCCUGCAGUGCCGGCGGUGUCCCCAUUACUUCUUACCGAACUCCGAUCUGUUUCAAGGCAAACCCCACUCGGCCUUGGAAAACGCUGCUAAACAAACGUGG | 0.182 |
| UCAUCGACCACCAUGACAACACCUACACAGUCAAGUACACGCCUGUCCAGCAGGGUCCAGCCGGCGUCAAUGUCACUUAUGGAGGGGAUCCCAUCCCUAAGAGCCCUUUCUCAGUGGCAG | 0.227 |
| AUUUUCUAGGAUGUCUUCUGAGAUAGGAAGGGAGAAGAGCCAGGACUGGGGGUCAGCUGGACCCGGUGGAGUAUUUAAAGUGGAGUGGAUACGCAAAGAAAGCCUUCCCUUUCAGUUUGC | 0.39 |
| CCUCCAGAGUUCGGAUUUCCUGAGAAGAUAACAGUGAAACAGCGUUAUCGCCUACUUGGAAACCGUCUCAACGUGCAUGUAGUAGCUAAACUAAUCAAAAUCUUAUAUGAAUAAUUUUGA | 1.47 |
